Measured values from different studies.
A part holds a random share of what one study measured. Positions count from the first letter of the parent shown.

Series 1
Target: Sal-like protein 4, full length isoform B (SALL4, Homo sapiens, UniProt Q9UJQ4-2, residues 1-616)
Technique: universal PBM
Molecule type: double-stranded DNA, one strand shown
Sample: in vitro
Tested at: not given
Setting: 8-mer, flanks averaged, mean of replicates
Direction: higher = stronger binding
Endpoint: E-score
Residues (chain): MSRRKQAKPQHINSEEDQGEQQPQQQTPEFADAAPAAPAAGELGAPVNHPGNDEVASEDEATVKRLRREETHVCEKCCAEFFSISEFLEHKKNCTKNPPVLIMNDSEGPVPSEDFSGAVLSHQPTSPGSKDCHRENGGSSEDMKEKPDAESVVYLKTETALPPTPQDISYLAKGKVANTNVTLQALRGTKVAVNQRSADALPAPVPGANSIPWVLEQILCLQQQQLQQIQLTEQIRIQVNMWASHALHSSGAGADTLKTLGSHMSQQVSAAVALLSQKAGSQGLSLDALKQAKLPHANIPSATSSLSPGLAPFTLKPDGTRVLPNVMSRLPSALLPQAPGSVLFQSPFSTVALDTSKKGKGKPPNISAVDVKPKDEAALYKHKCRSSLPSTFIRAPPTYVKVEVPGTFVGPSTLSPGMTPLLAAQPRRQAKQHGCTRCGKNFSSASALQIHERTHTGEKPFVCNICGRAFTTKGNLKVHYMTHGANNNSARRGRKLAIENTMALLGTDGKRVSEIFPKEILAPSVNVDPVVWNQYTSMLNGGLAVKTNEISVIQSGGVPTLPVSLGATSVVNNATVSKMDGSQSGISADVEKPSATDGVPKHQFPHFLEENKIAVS
Sequence = CGACGGTA; value = -0.0765
Sequence = GACAAACC; value = -0.0535
Sequence = ACCGCAAA; value = -0.00773
Sequence = AGACCGCT; value = -0.148
Sequence = CATTGAAG; value = 0.0496
Sequence = GTTCGACA; value = -0.0107
Sequence = AGCCGCCG; value = -0.265
Sequence = CCACACGC; value = -0.207
Sequence = CGCCTGAG; value = -0.285
Sequence = TATGACCA; value = 0.202
Sequence = ACGTAAGA; value = 0.225
Sequence = ACATCGCT; value = 0.0133
Sequence = ACGCAGCG; value = -0.324
Sequence = CGGGCAGA; value = -0.214
Sequence = ATACGTGA; value = 0.262
Sequence = GGGAGGTA; value = -0.195
Sequence = CCGACGCC; value = -0.223
Sequence = ATACCACG; value = 0.0808
Sequence = GGGCAGGA; value = -0.147
Sequence = CCGATCGG; value = -0.228
Sequence = GGCTAAAC; value = -0.172
Sequence = CAAGCCGG; value = -0.262
Sequence = GTACACAC; value = 0.113
Sequence = GAACCCTA; value = 0.0774

Series 2
Target: CCNE1, cyclin fold, Cln2 fusion (human)
Technique: yeast growth competition, sequencing
Sample: yeast
Setting: strong parent motif
Relative to: not given
Direction: higher = stronger binding
Endpoint: normalised enrichment score
Starting sequence: CDKN1B docking peptide (human); PSACRNLFGPVDH
Change = PSACRVLFGPVDH [N6V]; value = 4.97
Change = PSACRNCFGPVDH [L7C]; value = -0.765
Change = PTACRNLFGPVDH [S2T]; value = 2.75
Change = PSACRNLFGIVDH [P10I]; value = 2.03
Change = PSACRNLFGPVNH [D12N]; value = 3.27
Change = PSACRNLFGPVWH [D12W]; value = 2.35
Change = PSACFNLFGPVDH [R5F]; value = 0.652
Change = PCACRNLFGPVDH [S2C]; value = 1.53
Change = PSACRNLFGVVDH [P10V]; value = 2.71
Change = PNACRNLFGPVDH [S2N]; value = 2.97
Change = PSACRNLFGPYDH [V11Y]; value = 4.15
Change = PSACRNLFGPVDI [H13I]; value = 3.11
Change = PSACRNLFGPVMH [D12M]; value = 2.97
Change = PFACRNLFGPVDH [S2F]; value = 1.62
Change = ESACRNLFGPVDH [P1E]; value = 3
Change = PSAKRNLFGPVDH [C4K]; value = 2.89
Change = PSAHRNLFGPVDH [C4H]; value = 0.141
Change = PSNCRNLFGPVDH [A3N]; value = 0.272
Change = LSACRNLFGPVDH [P1L]; value = 2.1
Change = PSACRWLFGPVDH [N6W]; value = 1.45
Change = PSACRNLFGPVDP [H13P]; value = 3.12
Change = PSACDNLFGPVDH [R5D]; value = -0.0396
Change = PSACRNLTGPVDH [F8T]; value = 0.192
Change = PSACRNIFGPVDH [L7I]; value = 1.6
Change = PSACRNLFGPTDH [V11T]; value = 2.94

Series 3
Target: Interferon regulatory factor 7, full length, phosphomimetic (IRF7, Homo sapiens, UniProt Q92985, residues 1-503, S101K/S471D/S472D/S475D/S476D/S477D/S483D/S484D/S487D)
Technique: protein-binding microarray
Molecule type: double-stranded DNA, one strand shown
Sample: in vitro
Tested at: 250 nM
Setting: 60-bp whole probe
Added: salmon DNA 0.4 mg/ml
Relative to: random background probes
Direction: higher = stronger binding
Endpoint: log fluorescence
Shared flanks, not repeated: GCCTAGCAC … GTCTTGATTCGCTTGACGCTGCTG
Construct (chain): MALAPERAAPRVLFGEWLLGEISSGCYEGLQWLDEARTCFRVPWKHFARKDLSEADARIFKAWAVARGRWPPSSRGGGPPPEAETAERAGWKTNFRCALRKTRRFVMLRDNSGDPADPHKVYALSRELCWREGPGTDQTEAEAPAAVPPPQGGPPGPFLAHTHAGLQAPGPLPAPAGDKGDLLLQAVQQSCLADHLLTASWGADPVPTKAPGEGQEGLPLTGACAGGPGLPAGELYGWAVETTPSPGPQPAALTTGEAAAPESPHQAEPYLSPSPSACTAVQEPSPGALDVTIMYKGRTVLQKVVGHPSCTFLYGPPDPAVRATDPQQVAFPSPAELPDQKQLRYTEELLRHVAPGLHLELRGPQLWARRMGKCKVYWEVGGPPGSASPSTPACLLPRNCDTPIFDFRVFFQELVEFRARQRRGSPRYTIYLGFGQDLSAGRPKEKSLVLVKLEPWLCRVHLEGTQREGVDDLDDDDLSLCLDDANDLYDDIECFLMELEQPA
Sequence = GACGGTTTCGGATTCGGGACGTGCTAG; value = 11.1 z-score
Sequence = TCAGATTTCCATTATTGACTGTGCTAG; value = 1.01 z-score
Sequence = GACGGTATCGACACTGGGTACGTGCTA; value = -0.333 z-score
Sequence = GACGGTTTCGAAACTGGGGACGTGCTA; value = 6.91 z-score
Sequence = TCACGTCTGATTTTGCTACTGTGCTAG; value = 0.25 z-score
Sequence = GGGGTTTCGGATGGGATGTCGTGCTAG; value = 4.46 z-score
Sequence = GTCGGTATCCTACTGCTGACGTGCTAG; value = 0.268 z-score
Sequence = TTACGACTGGGGTATCGGTTAGTGCTA; value = 0.101 z-score
Sequence = TTAGGTATCTTTATCCTTTAGTGCTAG; value = 0.299 z-score
Sequence = GTCGATTTCAGTTCCGAGACGTGCTAG; value = 1.51 z-score
Sequence = GACGGTATCGGACTGGTGACGTGCTAG; value = -0.279 z-score
Sequence = GACGGTATCTTTTTCCTGACGTGCTAG; value = 0.637 z-score
Sequence = TCATTTTTTTTTGTATTACTGTGCTAG; value = 1.06 z-score
Sequence = TTAGGTATCTACTATCGGTTAGTGCTA; value = 0.423 z-score
Sequence = TTAGGTCCCCTTATCCTTTAGTGCTAG; value = 0.81 z-score
Sequence = CTAGGACTGGGTCTCGGTTAGTGCTAG; value = 1.21 z-score
Sequence = GACGCACTGAGTATCGAGACGTGCTAG; value = 0.155 z-score
Sequence = GACGGTATTGGTCTCGGGACGTGCTAG; value = 0.386 z-score
Sequence = GACGAACTGGGGTATCGAGACGTGCTA; value = -0.53 z-score

Series 4
Target: Histone acetyltransferase KAT6A, both winged helices, GST fusion (KAT6A, Homo sapiens, UniProt Q92794, residues 1-181)
Technique: protein binding microarray
Molecule type: double-stranded DNA, one strand shown
Sample: in vitro
Tested at: not given
Setting: 8-mer, flanks averaged, mean of 2 arrays, mostly near background
Relative to: not given
Direction: higher = stronger binding
Endpoint: E-score
Construct (chain): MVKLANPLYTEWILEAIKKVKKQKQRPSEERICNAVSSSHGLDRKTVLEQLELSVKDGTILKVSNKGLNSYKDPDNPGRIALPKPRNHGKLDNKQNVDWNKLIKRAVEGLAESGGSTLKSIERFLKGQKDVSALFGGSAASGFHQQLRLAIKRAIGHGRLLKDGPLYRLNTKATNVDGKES
Sequence = AACTGCTT; value = -0.0749
Sequence = CACCGTGA; value = 0.118
Sequence = CAACCCAA; value = -0.245
Sequence = CACTGGAC; value = 0.0179
Sequence = GTTTTAAA; value = -0.141
Sequence = GTGGCGCA; value = 0.194
Sequence = CGTGCAAA; value = -0.0597
Sequence = ACGGTGAT; value = 0.124
Sequence = ATTCGGCG; value = 0.245
Sequence = TAATTCGA; value = -0.124
Sequence = CACGAGCA; value = -0.0963
Sequence = ATGTCCCC; value = -0.0282
Sequence = CCCTCGAC; value = -0.146
Sequence = AGTACAAT; value = 0.0169
Sequence = ATACCGCA; value = 0.204
Sequence = AGGCAATG; value = -0.241
Sequence = ACGCCGGA; value = 0.0853
Sequence = TATTCGCA; value = -0.0403

Series 5
Target: PABPC1L2, full length, GST fusion (mouse, UniProt A0ABA7IW68)
Technique: RNAcompete
Molecule type: RNA
Sample: in vitro
Tested at: 20 nM
Setting: 7-mer, probes averaged, single round
Relative to: mean of 7-mers
Direction: higher = stronger binding
Endpoint: 7-mer Z-score
Residues (chain): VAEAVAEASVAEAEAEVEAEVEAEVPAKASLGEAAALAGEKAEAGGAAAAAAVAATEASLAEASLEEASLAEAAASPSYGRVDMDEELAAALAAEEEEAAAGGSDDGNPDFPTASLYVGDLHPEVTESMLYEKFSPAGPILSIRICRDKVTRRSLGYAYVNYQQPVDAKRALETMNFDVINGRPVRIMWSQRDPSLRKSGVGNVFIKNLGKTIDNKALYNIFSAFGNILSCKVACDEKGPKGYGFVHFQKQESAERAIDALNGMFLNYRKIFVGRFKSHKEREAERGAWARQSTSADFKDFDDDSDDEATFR
Sequence = GGCUGCA; value = 0.173
Sequence = UGUGGCG; value = 0.0352
Sequence = GUGGAAA; value = 0.702
Sequence = GCUAUUG; value = -0.293
Sequence = UUUAUUC; value = -0.376
Sequence = UUCUCAC; value = -0.431
Sequence = GGCUGAU; value = -0.0192
Sequence = CGCUUCC; value = -0.34
Sequence = GGCACGA; value = 0.296
Sequence = UACUUAU; value = -0.182
Sequence = CCAGGUC; value = -0.269
Sequence = AGCGAGA; value = 0.171
Sequence = CGCGAGG; value = -0.246
Sequence = UUUUCCU; value = -0.38
Sequence = UGGGGUA; value = 0.18
Sequence = UAAGAGU; value = -0.139
Sequence = AGUAGGU; value = 0.0805
Sequence = GAUGGGG; value = 0.515
Sequence = CUCUCAG; value = -0.4
Sequence = GACAGUA; value = 0.0551
Sequence = UGUUGGU; value = -0.543
Sequence = GAGCGCA; value = -0.119
Sequence = CCACAGA; value = -0.0953
Sequence = AAGCUGG; value = 0.184
Sequence = GACCUAU; value = -0.177
